Assay results pooled from the literature.
± marks the error that the study gave. Square brackets hold non-standard residues; d marks the D form. * marks the point of attachment.
HapB/HapC/HapE/HapX HapX 24-158: HapB/HapC/HapE/HapX HapX 24-158 (Aspergillus fumigatus)
B1: PilA soluble N-terminally truncated (Haemophilus influenzae, UniProt Q5D8E3); chain TKKAAVSELLQASAPYKADVELCVYSTNETTNCTGGKNGIAADITTAKGYVKSVTTSNGAITVKGDGTLANMEYILQATGNAATGVTWTTTCKGTDASLFPANFCGSVTQ
B2: acrA (Escherichia coli, UniProt P0AE06); N-terminal lipid at C25; chain CDDKQAQQGGQQMPAVGVVTVKTEPLQITTELPGRTSAYRIAEVRPQVSGIILKRNFKEGSDIEAGVSLYQIDPATYQATYDSAKGDLAKAQAAANIAQLTVNRYQKLLGTQYISKQEYDQALADAQQANAAVTAAKAAVETARINLAYTKVTSPISGRIGKSNVTEGALVQNGQATALATVQQLDPIYVDVTQSSNDFLRLKQELANGTLKQENGKAKVSLITSDGIKFPQDGTLEFSDVTVDQTTGSITLRAIFPNPDHTLLPGMFVRARLEEGLNPNAILVPQQGVTRTPRGDATVLVVGADDKVETRPIVASQAIGDKWLVTEGLKAGDRVVISGLQKVRPGVQVKAQEVTADNNQQAASGAQPEQSKS
B3: MC159L (Molluscum contagiosum virus, UniProt Q98325); chain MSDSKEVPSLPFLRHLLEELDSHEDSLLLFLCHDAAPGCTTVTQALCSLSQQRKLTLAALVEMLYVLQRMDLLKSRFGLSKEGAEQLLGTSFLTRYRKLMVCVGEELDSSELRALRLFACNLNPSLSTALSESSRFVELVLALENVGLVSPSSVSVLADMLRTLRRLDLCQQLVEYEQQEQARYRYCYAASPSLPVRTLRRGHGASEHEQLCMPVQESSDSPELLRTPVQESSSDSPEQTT
Sequence of UniProt P31224 (whole entry, unmodified, looked up): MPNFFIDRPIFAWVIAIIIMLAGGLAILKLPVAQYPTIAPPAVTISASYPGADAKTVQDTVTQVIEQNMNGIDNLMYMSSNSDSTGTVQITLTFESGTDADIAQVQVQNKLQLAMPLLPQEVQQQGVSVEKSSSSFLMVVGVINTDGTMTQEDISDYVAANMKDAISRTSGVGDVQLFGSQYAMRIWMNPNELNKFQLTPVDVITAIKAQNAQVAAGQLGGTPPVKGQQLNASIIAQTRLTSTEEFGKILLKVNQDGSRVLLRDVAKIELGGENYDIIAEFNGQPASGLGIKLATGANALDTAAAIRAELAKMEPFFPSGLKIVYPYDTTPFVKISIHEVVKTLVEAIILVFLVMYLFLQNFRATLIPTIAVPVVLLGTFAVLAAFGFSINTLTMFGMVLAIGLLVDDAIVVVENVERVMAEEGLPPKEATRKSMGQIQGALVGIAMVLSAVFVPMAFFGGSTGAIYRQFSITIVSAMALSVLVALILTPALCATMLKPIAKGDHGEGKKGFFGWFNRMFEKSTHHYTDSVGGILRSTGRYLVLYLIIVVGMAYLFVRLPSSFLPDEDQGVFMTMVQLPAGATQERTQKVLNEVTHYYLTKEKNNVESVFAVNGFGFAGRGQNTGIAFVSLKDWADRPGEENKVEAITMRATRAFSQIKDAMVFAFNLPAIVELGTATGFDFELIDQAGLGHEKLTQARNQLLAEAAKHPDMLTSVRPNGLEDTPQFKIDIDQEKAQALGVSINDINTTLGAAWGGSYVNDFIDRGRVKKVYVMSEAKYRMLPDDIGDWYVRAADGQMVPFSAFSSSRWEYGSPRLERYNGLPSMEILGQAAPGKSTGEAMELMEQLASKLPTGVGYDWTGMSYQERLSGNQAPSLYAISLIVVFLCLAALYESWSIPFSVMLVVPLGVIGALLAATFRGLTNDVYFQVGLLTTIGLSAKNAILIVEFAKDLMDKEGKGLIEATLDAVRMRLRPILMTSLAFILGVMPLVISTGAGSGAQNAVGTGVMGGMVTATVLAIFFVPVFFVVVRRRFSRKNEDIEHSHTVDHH
Sequence of UniProt P0A4E4 (whole entry, looked up): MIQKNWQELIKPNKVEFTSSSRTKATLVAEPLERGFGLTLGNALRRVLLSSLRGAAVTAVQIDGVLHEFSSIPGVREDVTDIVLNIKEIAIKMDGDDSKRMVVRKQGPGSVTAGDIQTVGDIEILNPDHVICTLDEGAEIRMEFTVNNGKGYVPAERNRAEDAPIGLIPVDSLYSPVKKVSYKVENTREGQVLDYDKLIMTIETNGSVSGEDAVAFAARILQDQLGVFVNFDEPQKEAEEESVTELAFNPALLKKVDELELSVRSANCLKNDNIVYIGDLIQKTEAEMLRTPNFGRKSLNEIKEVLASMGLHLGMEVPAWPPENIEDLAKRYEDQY
Sequence of UniProt P05362 (whole entry, looked up): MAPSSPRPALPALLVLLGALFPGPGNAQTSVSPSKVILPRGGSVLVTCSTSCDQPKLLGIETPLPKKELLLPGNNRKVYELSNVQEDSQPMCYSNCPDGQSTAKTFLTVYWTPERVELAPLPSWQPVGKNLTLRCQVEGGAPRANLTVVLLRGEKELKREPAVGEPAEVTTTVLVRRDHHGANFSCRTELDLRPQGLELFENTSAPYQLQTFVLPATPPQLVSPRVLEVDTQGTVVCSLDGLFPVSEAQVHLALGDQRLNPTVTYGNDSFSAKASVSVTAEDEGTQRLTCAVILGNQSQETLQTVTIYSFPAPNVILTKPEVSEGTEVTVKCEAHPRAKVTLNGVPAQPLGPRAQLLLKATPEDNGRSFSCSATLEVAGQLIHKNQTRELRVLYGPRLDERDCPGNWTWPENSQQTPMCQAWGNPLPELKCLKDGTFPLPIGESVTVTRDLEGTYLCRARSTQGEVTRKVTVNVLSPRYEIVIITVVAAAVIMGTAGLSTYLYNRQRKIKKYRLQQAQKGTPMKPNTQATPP
Sequence of UniProt P23946 (whole entry, looked up): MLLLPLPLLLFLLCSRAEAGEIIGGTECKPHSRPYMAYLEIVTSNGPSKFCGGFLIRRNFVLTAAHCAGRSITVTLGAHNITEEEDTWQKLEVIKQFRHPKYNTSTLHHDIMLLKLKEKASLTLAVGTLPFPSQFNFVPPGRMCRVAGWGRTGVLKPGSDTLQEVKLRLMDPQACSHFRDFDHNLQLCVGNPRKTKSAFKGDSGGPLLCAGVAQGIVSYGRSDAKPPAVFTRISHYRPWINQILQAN
Sequence of UniProt Q3KNA1 (whole entry, looked up): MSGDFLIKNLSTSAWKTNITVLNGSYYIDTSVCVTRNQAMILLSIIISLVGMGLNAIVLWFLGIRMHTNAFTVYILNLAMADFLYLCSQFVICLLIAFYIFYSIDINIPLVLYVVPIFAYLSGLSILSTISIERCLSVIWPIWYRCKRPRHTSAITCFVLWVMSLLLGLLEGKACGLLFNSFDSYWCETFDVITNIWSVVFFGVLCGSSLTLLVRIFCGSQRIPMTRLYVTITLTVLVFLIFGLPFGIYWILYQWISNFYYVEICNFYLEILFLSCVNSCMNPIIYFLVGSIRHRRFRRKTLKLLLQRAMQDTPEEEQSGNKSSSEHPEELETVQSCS

| Molecule | tested on | test | test system | setting | how to read | endpoint | value |
| --- | --- | --- | --- | --- | --- | --- | --- |
| B1 | ICAM1 28-480 (Homo sapiens, UniProt P05362) | SPR |  |  |  | Kd | 70 nM |
| PLG kringle 2 C4G/E56D/L72Y (Homo sapiens) | PAM 97-145 (Streptococcus pyogenes) | ITC |  | 25 °C |  | Kd | 9 nM |
| RmS-17, glycosylated (Rhipicephalus microplus) | F9 factor IXa (Bos taurus) | chromogenic substrate hydrolysis, inhibitor |  | 1 µM |  | protease inhibition | < 20% |
| EMRLSKFFRDFILQRKK (comC mature CSP-1 (Streptococcus pneumoniae, UniProt P60242)) | Mrgprb2 (Mus musculus, UniProt Q3KNA1) | MST | peptide, membranes |  |  | Kd | 70100 ± 3200 nM |
| {FITC}-GFID[pS]D[pT]DVEEE-NH2 (peptide; N-terminal FITC, pS5, pT7, C-terminal amide; FITC = O=C1OC2(c3ccc(O)cc3Oc3cc(O)ccc32)c2ccc(NC(=S)*)cc21; pS = N[C@@H](COP(=O)(O)O)C(=O)O; pT = C[C@@H](OP(=O)(O)O)[C@H](N)C(=O)O) | TOPBP1 641-746 A707D (Homo sapiens, UniProt Q92547) | fluorescence polarisation | peptide | pH 7.5, NaCl 150 mM |  | Kd | 120000 ± 10000 nM |
| B2 (acrA) | acrB C493S/C887S/S1043C (Escherichia coli, UniProt P31224) | SPR |  | two-state model, forward second step |  | k2 | 0.0121 M⁻¹ s⁻¹ |
| B3 (MC159L) | CASP8 tandem DED Y8A, TAMRA label | polymerisation inhibition, fluorescence polarization |  | apparent |  | Ki | 48.5 nM |
| CATTTGTCCACTGGCGTCCGGTCCATTACTCATCGATTCC (dsDNA) | HapB/HapC/HapE/HapX HapX 24-158 | SPR | double-stranded DNA, one strand shown | HapX on preformed CBC:DNA |  | Kd | < 100 nM |
| RmS-6, glycosylated (Rhipicephalus microplus) | CMA1 (Homo sapiens, UniProt P23946) | chromogenic substrate hydrolysis, inhibitor |  | 1 µM |  | protease inhibition | < 20% |
| traR R75A (Rhizobium radiobacter) | rpoA (Agrobacterium tumefaciens, UniProt P0A4E4) | Class II traG::lacZ reporter | E. coli DH5α |  | reference: wild-type TraR, higher = stronger activation | reporter activation | 38% |
| AGTTTGACCAATCAGTAATAATTTATTGTCATCAAGT (dsDNA) | HapB/HapC/HapE/HapX HapX 24-158 | SPR | double-stranded DNA, one strand shown | HapX on preformed CBC:DNA |  | Kd | 1.71 nM |

Excerpt of the above:
| Molecule | tested on | test | test system | setting | how to read | endpoint | value |
| --- | --- | --- | --- | --- | --- | --- | --- |
| RmS-17, glycosylated (Rhipicephalus microplus) | F9 factor IXa (Bos taurus) | chromogenic substrate hydrolysis, inhibitor |  | 1 µM |  | protease inhibition | < 20% |
